# Assay results collected from several papers.
# Every numbered part comes from another study and shows a few of its results, in no order.

# Study 1 — method: protein-binding microarray; form: double-stranded DNA, one strand shown; matrix: in vitro; concentration: 2540 nM top; setting: 60-bp whole probe; together with: salmon DNA 0.4 mg/ml; relative to: random background probes; reading: higher = stronger binding; shared flanks, not repeated: GCCTAGCAC … GTCTTGATTCGCTTGACGCTGCTG
# Target: Interferon regulatory factor 3, full length, phosphomimetic (IRF3, Homo sapiens, UniProt Q14653, residues 1-427, S386D/S396D/S398D/S402D/T404D/S405D)
# Construct (chain): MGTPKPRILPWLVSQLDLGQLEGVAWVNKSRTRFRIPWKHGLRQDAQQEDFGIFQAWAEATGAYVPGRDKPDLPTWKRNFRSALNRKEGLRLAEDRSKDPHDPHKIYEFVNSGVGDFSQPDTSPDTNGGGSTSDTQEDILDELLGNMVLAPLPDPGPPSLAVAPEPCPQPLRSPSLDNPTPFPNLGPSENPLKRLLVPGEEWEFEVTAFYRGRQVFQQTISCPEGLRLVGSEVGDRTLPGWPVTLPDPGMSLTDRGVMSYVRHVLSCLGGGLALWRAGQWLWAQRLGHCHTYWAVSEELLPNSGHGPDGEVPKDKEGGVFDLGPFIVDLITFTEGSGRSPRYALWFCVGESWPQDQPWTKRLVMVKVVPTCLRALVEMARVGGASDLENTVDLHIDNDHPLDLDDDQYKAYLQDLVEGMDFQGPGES
Strand,fitted relative affinity [z-score]
AGTTTATTTATTTTTACATTGTGCTAG,1.14
TAAGCAAAAATGATTGGTTGGTGCTAG,-0.395
GACGGTTTCGACAATCGGGACGTGCTA,2.48
TCATGTATATACTATATGACTGTGCTA,0.146
TTAGTTATCGGTCTCGGTTAGTGCTAG,2.74
TTACAACTGAGTCTCGATTAGTGCTAG,-0.203
AACGGTATCGGTATCGGGACGTGCTAG,4.65
GGTTTTCTGGTTCCCATTCCGTGCTAG,3.61
TTAGGTCTCGGACTGGGGTAGTGCTAG,-0.455
TCACTCATACATCTGGGACTGTGCTAG,-0.00569
GTCGGTCTCCTTATCCTGACGTGCTAG,4.19
TTAGATATCGGGACCGGATTAGTGCTA,0.161
GACGGTTTCTTTTCCCTGACGTGCTAG,4.8
GAAGGTTCCGGTTTCGGGACGTGCTAG,6.46
GACGGTCTCCTTCTCCTGAAGTGCTAG,4.37
GACGAACTGGGGACAGGAGACGTGCTA,-0.332
TCATGTTTGTCACTCTCAGAGTGCTAG,0.73
TCAAAAATGGCTTTGCAACTGTGCTAG,-0.632
CTTTCCTTTGCTTTCTCCCAGTGCTAG,4.76

# Study 2 — method: universal PBM; form: double-stranded DNA, one strand shown; matrix: in vitro; concentration: not given; reading: higher = stronger binding
# Target: Sal-like protein 4, full length isoform B (SALL4, Homo sapiens, UniProt Q9UJQ4-2, residues 1-616)
# Setting: 8-mer, flanks averaged, mean of replicates
# Residues (chain): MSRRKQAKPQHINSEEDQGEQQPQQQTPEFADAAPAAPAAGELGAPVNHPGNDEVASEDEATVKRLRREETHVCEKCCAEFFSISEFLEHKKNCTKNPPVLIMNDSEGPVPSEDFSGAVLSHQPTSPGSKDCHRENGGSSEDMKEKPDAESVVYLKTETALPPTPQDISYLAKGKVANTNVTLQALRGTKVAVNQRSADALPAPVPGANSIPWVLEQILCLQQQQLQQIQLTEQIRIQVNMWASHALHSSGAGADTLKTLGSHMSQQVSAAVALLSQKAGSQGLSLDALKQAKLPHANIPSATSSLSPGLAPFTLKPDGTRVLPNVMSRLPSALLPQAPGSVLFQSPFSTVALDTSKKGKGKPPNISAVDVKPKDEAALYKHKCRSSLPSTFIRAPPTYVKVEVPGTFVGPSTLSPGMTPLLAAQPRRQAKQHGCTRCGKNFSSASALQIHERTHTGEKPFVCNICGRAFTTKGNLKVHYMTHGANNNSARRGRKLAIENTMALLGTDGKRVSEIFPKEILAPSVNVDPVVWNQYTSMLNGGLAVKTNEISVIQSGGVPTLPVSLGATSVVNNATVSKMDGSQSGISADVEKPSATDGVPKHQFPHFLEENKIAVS
Strand,E-score
CCCTCTCA,-0.195
CTTACTCC,0.0356
CTTAATCC,0.0274
ACGTCCCT,-0.0915
ATGTAACA,0.31
ACTGATCC,-0.0368
AAAACCCC,-0.0924
TTCGGCAA,-0.00407
AATTTTTG,0.381
ACCGTTCC,-0.134
ACAGAGAA,-0.0283
GTTCGCAA,0.101
ACCCATAG,-0.124
CCGTGTCA,-0.22
GCGTTCAA,0.064
TTTATAAA,0.409
GATTTCGC,0.0409
CAGGATGA,-0.0651
CAGCCACC,-0.181
CGGTGCTA,-0.149
ACTCGTTG,0.102
GTACTTCA,0.166
GACTGTGA,-0.0269
CCTGCCAG,-0.205
CTCAATCA,0.0127

# Study 3 — method: RNA Bind-n-Seq; form: RNA; matrix: in vitro; concentration: 365 nM; relative to: no-protein control; reading: higher = stronger binding
# Target: RNA binding protein fox-1 homolog 2, RRM domain, GST-SBP tag (RBFOX2, Homo sapiens, UniProt O43251-10, residues 100-194)
# Setting: natural RNA segment, single round, ends assumed
# Shared flanks, not repeated: GGGAGUUCUACAGUCCGACGAUC … UGGAAUUCUCGGGUGCCAA
# Construct (chain): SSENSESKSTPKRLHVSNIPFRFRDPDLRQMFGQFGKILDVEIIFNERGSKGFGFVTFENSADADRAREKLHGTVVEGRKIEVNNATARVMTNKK
Strand,RBNS enrichment (R)
ACUCUUAUGUGUUGUUCUUUCAGCCCAUGCUCCAGGUCACCGGUUUUUAGGUAAACAUGACAUGACAUGUACUUGUAAUAUCAGUGAAAGGGGCUUUUAGUCGUCUCAGU,0.221
UUUCUCUUUGUCAUUAAAGUCAAAUGUCUAUCUGGCUCACCACAAAGUGUUCUUUGAUUUUGGCUUUGAGGCUGCCAUUUCUGGAAUAAGGGGGGAUGGGAAACAGCUGA,0.32
GCACUGCACCUGCUUCCUUCCCUUCAGUGCGGCCGACCCAUUUCUGUUGAACAGAUGUCUCCUGUGUGAUGCCCCUGACUCUUACAUUUAUCUUUCUAAAUCAUUUUCUG,0.699
UCUUGUGAUUUUUCUCUGUGAAUCCGUGGGUCUGGCUAGAAGGCCCAAUGCUGUAAAUAUGGGGAUAGUCUGGGUCAGGCCAAUCACUUCCUCUCUCACCCAUUUCGCUU,0.365
AGAUAGCAUCAAUAAUAUAGUCUCAGUCUUGUUUAUAAAGAUUCUAAGUUGUCUAGUAAAUAAGUCUCCCUGAAUCUUAAAUAAUUUUGGAGAAUUAGAAUUCUCCAUCC,0.59
UCUCAGUGAACCUUCUCAGUAAAUGGUGCCUUACCGUCACUCCAGUUUCAGGAACCAGCCACAUUUCUGGUGUGUAUAUGAGAGGGUGGCUGAUAGCAACUGACUUAGAC,0.812
CCUCCUCACCCCAGGUGCCUUAAGACAGCCCAGUUCUAACCUGAUAUUCAUGACCAAACUAGCCCUGACACUCAGGGACCUGGGCCUCUGCUGACUGUCAGGAGCAAAAC,0.545
UGAAGCAGCACUGUGAGUGGUUCAAGCACACUGGAAUAUAAAACAGUCAUGGCCUGAGAUGCAGGUGAUGCCAUUACAGAACCAAAUCGUGGCACGUAUUGCUGUGUCUC,0.659

# Study 4 — method: RNA Bind-n-Seq; form: RNA; matrix: in vitro; concentration: not given; relative to: input RNA pool; reading: higher = stronger binding
# Target: RING finger protein unkempt homolog, zinc fingers 1-6, GST-SBP tag (UNK, Homo sapiens, UniProt Q9C0B0, residues 30-357)
# UniProt Q9C0B0, sequence (30-357, looked up): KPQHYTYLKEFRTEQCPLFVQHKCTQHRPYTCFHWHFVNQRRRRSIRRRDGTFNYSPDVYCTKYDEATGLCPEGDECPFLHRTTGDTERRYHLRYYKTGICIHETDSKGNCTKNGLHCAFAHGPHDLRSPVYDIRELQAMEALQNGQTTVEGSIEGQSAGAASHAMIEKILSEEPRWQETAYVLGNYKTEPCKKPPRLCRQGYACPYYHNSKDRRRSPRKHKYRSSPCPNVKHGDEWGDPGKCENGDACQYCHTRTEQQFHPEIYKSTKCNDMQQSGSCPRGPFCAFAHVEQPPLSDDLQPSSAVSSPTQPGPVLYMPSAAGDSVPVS
# Setting: RNA with constant flanks, human-mouse chimeric sites, ends assumed
# Shared flanks, not repeated: GGGAGUUCUACAGUCCGACGAUC … CAACAGAGGAUUGAGCAUCA
Strand,bound/input enrichment [ratio]
AGAAAGCAAAACUUGGAACGAUUUAAGAAAGGAGACGUAAGAUUCUUGAUUUGCACAGAUGUAGCUGCUAGAGGAAUUGAUAUCCACGGCGUUCCUUAUGUGAUCAACGUCACCCUGCCU,0.221
GCAGGAUCUUCUAAGUACCAGUGGGACAUUAUGAAAUCCCUUGGGCUCUCUGAUGACGAGAUAGUAAAGUUUUCUGAAGCAGAGCACUGGCUUGAUUAUUUCCCGCCACUGGCCGUUCAG,0.163
AAAGUGGACUAUGGCGAGUACAUGGAUAAAAACAAUGUGAGGCGGCAAGCAACAACAAUCAUAGCUGAUAAUAUUAUAUUUCUGAGUGACCAGACAAAAGAAAAGGCAUAGAACGGAUGA,6.35
CUGUUUUGACAGCCACACAAUCUUGGCAUGUAUUAAGGAAAAAAAAAAUCCCUGUUCAAGUAGUUUUUCCACCUAUCAGCACUGAGUAAAUGCCAUAACUCCGCGGAAAUGGUCUAAAUA,0.204
GGCUGCUGGUGACUGUCCUGGAGUGGCUGGAGUUCCCGCCGGAGCGCGGCCAGACUAAUUAUAGAAAAUGCCAAGUAGGAAGUUUGUUGAGGGUGAAGUGGUCAGAGGUCGAUGGCCUGG,3.83
AGUGUGCAGGAAUUCAUGACCUUUACAAGUCAACUGAUUGUGGAGCGCUCGGGGAAAGGCAGCAGAGCUUCUGUCAAAGAACAAGAGUAUCUUUGCCACGUCUACGUCCGGAGCGACAGU,0.127
UCAACUGACAACAUCAAAUACCAGCCUAAAGGGGGGCAGGUACAAAUUGUUACCAAGAAAAUAGACCUAAGCCAUGUGACAUCCAAAUGUGGCUCUCUAAAGAACAUCCGCCACAGGCCA,0.567
GUCAACAGCUGCCUCAACCCCAUCCUCUAUGCUUUCUUGGAUGAGAACUUCAAGGCCUGCUUCCGCAAGUUCUGCUGUGCUUCUGCCCUGCGCCGGGACGUGCAGGUGUCUGACCGCGUG,0.374

# A few entries again (study 2):
Strand,E-score
CTTACTCC,0.0356
CTTAATCC,0.0274
ACGTCCCT,-0.0915
ATGTAACA,0.31
ACTGATCC,-0.0368
AAAACCCC,-0.0924
TTCGGCAA,-0.00407
AATTTTTG,0.381
ACCGTTCC,-0.134
